Results gathered from unrelated publications.
Protocols differ between the studies behind these lines. ± marks the error that the study gave. Values after ≈ are worked out from the molar mass of the structure shown. Where no end group is shown, it is not given here.

CCCCOc1c(OC)cc(NC(C)CCCN)c2nc(C(C)(C)C)cc(C)c12 (stereo not shown)
MBC (Staphylococcus aureus; microbial killing; ATCC33591 MRSA; drug-resistant strain): 5 µg/mL (≈ 12.5 µM)

CP(=O)(O)CCC(N)C(=O)O (stereo not shown)
herbicidal activity (Setaria faberi; 60 g/ha, 13 days, SETFA, post-emergence spray; relative to: untreated (0%), complete kill (100%)): 100%

TDVDHVFLRF-OH (C-acid)
inhibition (Drosophila melanogaster; gut contraction; peptide, adult gut; 1 µM, within 10 min; relative to: DMS effect): 71%

CCCCCCCOc1c(OC)cc(NC(C)CCCN)c2nc(C(C)(C)C)cc(C)c12 (stereo not shown)
MBC (Staphylococcus aureus; microbial killing; ATCC33591 MRSA; drug-resistant strain): 5 µg/mL (≈ 11.3 µM)

OC[C@@H]1[C@@H](O)[C@H](O)[C@@H](O)CN1CCCCCCOc1cc(F)ccc1F
EC90 (bovine viral diarrhea virus; MDBK; 22 h): 16 ± 7.9 µM

TRTRVSRLY
viral yield (rhesus rotavirus; peptide, mouse cholangiocytes; 1 mM, cell pretreatment; relative to: serum-free medium): decreased

VDHVFLRF-NH2 (C-amide)
inhibition (Drosophila melanogaster; heart rate; wandering third instar larval heart; 40 nL injected, 1 µM, 10 min; relative to: DMS): 223%

CCCCCCCOc1c(OC)cc(NC(C)CCCN)c2nc(C(C)(C)C)ccc12 (stereo not shown)
MBC (Staphylococcus aureus; microbial killing; ATCC33591 MRSA; drug-resistant strain): 10 µg/mL (≈ 23.3 µM)

CC(=NNC(=O)CN1c2c(-c3ccccc3)n[nH]c2-c2ccccc2S1(=O)=O)c1sc(N)nc1C
EC90 (HIV-1; viral replication; PBMC): > 100 µM

CC[C@H](C)[C@H](NC(=O)[C@H](CC(C)C)NC(=O)[C@H](Cc1c[nH]cn1)NC(=O)[C@H](Cc1c[nH]cn1)NC(=O)[C@@H](NC(=O)[C@H](Cc1ccccc1)NC(=O)[C@H](Cc1c[nH]cn1)NC(=O)[C@H](Cc1c[nH]c2ccccc12)NC(=O)[C@@H](NC(=O)[C@H](Cc1c[nH]cn1)NC(=O)[C@H](Cc1c[nH]cn1)NC(=O)[C@H](Cc1c[nH]c2ccccc12)NC(=O)[C@@H](N)CC(C)C)[C@@H](C)CC)C(C)C)C(N)=O
infectivity reduction (herpes simplex virus 1; intracellular virus, plaque; Vero, F; concentration not given, 24 h post-infection, added after entry): 77.7%

O=C/C=C/c1ccccc1
time to 1 log10 kill (Cryptococcus neoformans; CN, PBS; 2 x MIC, up to 48 h, 37 °C; relative to: untreated): 7 h

CC(C)C[C@H](NC(=O)[C@H](CCCNC(=N)N)NC(=O)[C@@H]1CCCN1C(=O)[C@H](CCCNC(=N)N)NC(=O)[C@@H]1CCCN1C(=O)[C@@H]1CCCN1C(=O)[C@H](CCCNC(=N)N)NC(=O)[C@@H]1CCCN1C(=O)[C@H](CCC(N)=O)NC(=O)[C@@H]1CCCN1C(=O)[C@H](CCCCN)NC(=O)[C@H](Cc1ccc(O)cc1)NC(=O)[C@@H](NC(=O)[C@@H]1CCCN1C(=O)[C@H](CCCCN)NC(=O)[C@H](CC(N)=O)NC(=O)[C@H](CC(N)=O)NC(=O)CN)C(C)C)C(=O)O
MIC (Salmonella enterica serovar Typhimurium; SL1344, Mueller-Hinton broth; 18 h, 37 °C): 0.192 ± 0.044 µM (≈ 0.406 µg/mL)

CN[C@H](CC(C)C)C(=O)N[C@H]1C(=O)N[C@@H](CC(N)=O)C(=O)N[C@H]2C(=O)N[C@H]3C(=O)N[C@H](C(=O)N[C@H](C(=O)O)c4cc(O)cc(O)c4-c4cc3ccc4O)[C@H](O)c3ccc(c(Cl)c3)Oc3cc2cc(c3O[C@@H]2O[C@H](CO)[C@@H](O)[C@H](O)[C@H]2O[C@H]2C[C@](C)(N)[C@H](O)[C@H](C)O2)Oc2ccc(cc2Cl)[C@H]1O
larval survival (vancomycin-resistant Enterococcus; Galleria mellonella larvae; 20 mg/kg, day 7): 40%

A few entries again:
CP(=O)(O)CCC(N)C(=O)O (stereo not shown)
herbicidal activity (Setaria faberi; 60 g/ha, 13 days, SETFA, post-emergence spray; relative to: untreated (0%), complete kill (100%)): 100%
